Assay results from different studies.
Each numbered part is a random draw from the data of one study; scales do not carry over between parts. Changes are numbered by the printed parent chain.

Block 1
Target: RNA binding protein fox-1 homolog 2, RRM domain, GST-SBP tag (RBFOX2, Homo sapiens, UniProt O43251-10, residues 100-194)
Method: RNA Bind-n-Seq
Form: RNA
Sample: in vitro
Tested at: 365 nM
Setting: natural RNA segment, single round, ends assumed
Reference: no-protein control
Direction: higher = stronger binding
Under “RBNS enrichment (R)”, `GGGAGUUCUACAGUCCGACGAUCGUGCUUGCCCUUGGAAUUGUCUCUAAAUGCAUCAAGCAUACAAUAAAAAAAACUGAAAUUAACAUCCGUGGAGUGGCCUCUUCUGUUUUGUGUCUCGUGAAUAAACGUGGUGGAAUUCUCGGGUGCCAA` is recorded as 1.57.
Under “RBNS enrichment (R)”, `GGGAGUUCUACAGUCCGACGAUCAUCUGGAGUCCUUCAUGCCCAGGUCUGGAACCCAGGUUCUGACCCCAGGGCCCCACCCUGGGCUGGACAAUCAGAUCCCAAAGGAAUGCCAAAGGGGACUCGGUUGGGAGUGGAAUUCUCGGGUGCCAA` is recorded as 0.451.
For `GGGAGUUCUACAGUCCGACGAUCUGAGCAGCGCGUCCUAAGCACCUCCCGCUCCGGUGACCCCAUCCUUGCACACCUGACUCUGUCACUCAAGCCUUUCUCCACCAGGCCCCUCAUCUGAAUACCAAGCACAGUGGAAUUCUCGGGUGCCAA`, “RBNS enrichment (R)” read 1.24.
Under “RBNS enrichment (R)”, `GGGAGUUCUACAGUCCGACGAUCCCAAUUCCCCAGGGAAGGAAACUGUUGUGUCCAAUCCCCAUUAAAGACAAAUUGAUCAGUGCUUCCCACUCCAAGUCAAGCUUUAUGCAGGAAUGCUUUUCCAUCAGGGAUGGAAUUCUCGGGUGCCAA` is recorded as 0.405.
`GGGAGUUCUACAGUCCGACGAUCGCGAAACAGUGUAACAUUAUUCUGUGUUCUUUAUUAGCUAACUACAAGUGUAUGCUUUCCACUCUGGUUGAUCAUUAGUUCCCUAGUACAUACUUAAAAGUUUACCAAAUUGGAAUUCUCGGGUGCCAA` — result for “RBNS enrichment (R)”: 0.726.
Under “RBNS enrichment (R)”, `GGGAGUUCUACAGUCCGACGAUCCUUAUGCUGUCCCGGCCUCGCCAGCCCUCUGGGGCAUUGUGGGAGAUGCCUGCCAGGAAUGAGCAAGCUCUGUUGCUCGGGAGCCUCUUGUCACCUUCUUGGACUUAUUCUGGAAUUCUCGGGUGCCAA` is recorded as 2.4.
`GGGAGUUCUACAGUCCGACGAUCUUGCAUCUGUGAGUCCCUCUGGGCGGCUCGUGUACUGAUCGGAUCUGUGAGUCCCUCUGGGCGGCUCGUGUACUGAUCGGAUCGGCACCAUGACACUUCCCCUAGACUGUUGGAAUUCUCGGGUGCCAA` — result for “RBNS enrichment (R)”: 0.459.
Under “RBNS enrichment (R)”, `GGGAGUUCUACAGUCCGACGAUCAGUUUGUUGGGGAUGUAGUGAUGGUGGUAAGGAUCAGACCUAGGGCCCAGUGUACACUUAAGCACAUGCCUAACUCAAGAGUUUAGAUUUUAGUAUAGUUUAAAGUUGAGUGGAAUUCUCGGGUGCCAA` is recorded as 0.455.

Block 2
Target: ABI1, truncated, D143A, DHFR fusion (Arabidopsis thaliana)
Method: DHFR PCA, deep sequencing
Sample: yeast
Setting: methotrexate growth selection, single substitutions
Added: (+)-ABA 710 µM
Reference: wild-type fitted maximum
Direction: higher = stronger binding
Starting sequence: PYL1, truncated, DHFR fusion (Arabidopsis thaliana); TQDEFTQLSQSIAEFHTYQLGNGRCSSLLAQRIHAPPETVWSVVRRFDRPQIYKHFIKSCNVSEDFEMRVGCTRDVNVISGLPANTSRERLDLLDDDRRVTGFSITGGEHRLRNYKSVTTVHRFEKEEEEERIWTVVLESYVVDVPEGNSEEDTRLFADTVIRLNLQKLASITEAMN
`Q167H` — result for “relative binding score”: 98.9%.
`I133K` — result for “relative binding score”: 116%.
Under “relative binding score”, `L166M` is recorded as 90.1%.
`P83A`: “relative binding score” 96.8%.
`K168H` — result for “relative binding score”: 102%.
`N177A` — result for “relative binding score”: 85.7%.
`V78Q`: “relative binding score” 36.7%.
`R24Q` — result for “relative binding score”: 101%.
`Q31C` — result for “relative binding score”: 70.2%.
`T160L` — result for “relative binding score”: 102%.
`R32T`: “relative binding score” 97.1%.
Under “relative binding score”, `R123I` is recorded as 91.4%.
`R111W` — result for “relative binding score”: 50%.
Under “relative binding score”, `T106R` is recorded as 93.1%.
Under “relative binding score”, `H55Y` is recorded as 98.8%.
`V121H`: “relative binding score” 11.8%.
For `Q7L`, “relative binding score” read 100%.
`F56K` — result for “relative binding score”: 10.4%.
`P37G` — result for “relative binding score”: 70.2%.
`F56S`: “relative binding score” 24.4%.
Under “relative binding score”, `L82H` is recorded as 30.3%.
Under “relative binding score”, `G23D` is recorded as 104%.
`R46F`: “relative binding score” 57.6%.
`R46W` — result for “relative binding score”: 86.4%.

Block 3
Target: CCNE1, cyclin fold, Cln2 fusion (human)
Method: yeast growth competition, sequencing
Sample: yeast
Setting: strong parent motif
Reference: not given
Direction: higher = stronger binding
Starting sequence: CDKN1A docking peptide (human); SKACRRLFGPVDS; partner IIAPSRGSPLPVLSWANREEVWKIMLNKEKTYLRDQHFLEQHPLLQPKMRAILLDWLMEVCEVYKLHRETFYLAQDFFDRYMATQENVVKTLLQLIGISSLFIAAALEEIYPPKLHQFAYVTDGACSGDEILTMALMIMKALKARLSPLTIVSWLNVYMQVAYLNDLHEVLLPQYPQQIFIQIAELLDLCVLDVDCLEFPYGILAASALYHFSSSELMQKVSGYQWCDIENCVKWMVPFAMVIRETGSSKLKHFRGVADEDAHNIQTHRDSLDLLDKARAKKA
`D12Q`: “normalised enrichment score” 4.43.
`K2R` — result for “normalised enrichment score”: 5.26.
`L7I` — result for “normalised enrichment score”: 1.45.
`R5Y` — result for “normalised enrichment score”: 0.167.
Under “normalised enrichment score”, `G9W` is recorded as 5.32.
`C4V` — result for “normalised enrichment score”: 5.74.
Under “normalised enrichment score”, `P10W` is recorded as 2.77.
Under “normalised enrichment score”, `V11I` is recorded as 5.43.
`F8N` — result for “normalised enrichment score”: 0.451.
For `V11D`, “normalised enrichment score” read 7.11.
`R5H`: “normalised enrichment score” 0.403.
For `L7R`, “normalised enrichment score” read -0.0598.
`K2L`: “normalised enrichment score” 3.51.
`A3L` — result for “normalised enrichment score”: 0.919.
For `K2W`, “normalised enrichment score” read 2.98.
`D12C` — result for “normalised enrichment score”: 4.19.
`D12T`: “normalised enrichment score” 4.88.
`R5F`: “normalised enrichment score” 0.0695.
For `R6G`, “normalised enrichment score” read 0.243.
`C4Q` — result for “normalised enrichment score”: 1.89.
Under “normalised enrichment score”, `P10D` is recorded as 6.26.
`D12A`: “normalised enrichment score” 4.06.

Block 4
Target: Myc proto-oncogene protein, bHLH-zipper, MAX partner unstated (MYC, Homo sapiens, UniProt P01106, residues 368-449)
Chain of UniProt P01106 (368-449, looked up): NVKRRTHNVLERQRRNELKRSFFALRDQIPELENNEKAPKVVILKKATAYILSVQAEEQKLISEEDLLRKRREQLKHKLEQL
Method: protein-binding microarray
Form: double-stranded DNA, one strand shown
Sample: in vitro
Tested at: not given
Setting: k-mer, scored over probes, only values ≥0.25
Direction: higher = stronger binding
`ACGTGGAC` gave an E-score of 0.432.
`GCGTGCGA` gave an E-score of 0.414.
`GCCCACGC` gave an E-score of 0.4.
`ACCACGTG` gave an E-score of 0.498.
`ACGTTGCC` gave an E-score of 0.312.
`CATACACG` gave an E-score of 0.373.
`CTCTCCAC` gave an E-score of 0.253.
With `CGAGGACC` the E-score was 0.285.
For `CACGCGAA`, the E-score was 0.366.
For `ACGTCGGC`, the E-score was 0.254.
With `GGACAGCA` the E-score was 0.288.
`CTACACGC` gave an E-score of 0.374.
`GTGTAGCA` gave an E-score of 0.313.
With `CCTCCCCA` the E-score was 0.403.
The E-score of `CATGACGC` is reported as 0.288.
The E-score of `ACACACGC` is reported as 0.378.
The E-score of `AAACGAGG` is reported as 0.275.
`AACGTGCG` gave an E-score of 0.403.
`GCATGTCC` gave an E-score of 0.376.
`ACGCGCGA` has an E-score of 0.251.
With `GACATGCA` the E-score was 0.288.
`ACGTGCTA` gave an E-score of 0.442.
`ATGCCGCG` has an E-score of 0.271.

Excerpt of the above (block 2):
`N177A` — result for “relative binding score”: 85.7%.
`V78Q`: “relative binding score” 36.7%.
`R24Q` — result for “relative binding score”: 101%.
`Q31C` — result for “relative binding score”: 70.2%.
